# Experimental data from different studies.
# Lines come from different studies, so protocols differ.
# Organism: Cryptococcus neoformans
Structure (SMILES),test,test system,setting,endpoint,result
C/C=C/CNC(=N)NCCCCCCCCN1CCCc2cc(Cl)ccc2COc2ccccc2CNC(=N)NC1=O,"microbial growth, broth dilution",,24 h,MIC90,3.12 µg/mL
CCCCCn1ccc([C@H](C)[C@](O)(Cn2cnnn2)c2ccc(F)cc2F)n1,"growth, broth microdilution",H99,"72 h, 30 °C, ≥50% inhibition",MIC,0.25 µg/mL
CCCCCCCCCCCCCNCC(=O)N(CC(=O)N(CCCCN)CC(=O)N(CCN)CC(=O)N(CC(N)=O)Cc1cccs1)Cc1cccs1,broth microdilution,,"72 h, 35 °C",MIC,1.56 to 3.13 µg/mL
CCCCS(=O)(=O)c1ccc(S(=O)(=O)CCCC)c(O)c(=O)c1O,"microbial growth, broth dilution",,13 h,MIC80,100 µM
C[C@@H](c1ccn(Cc2ccc(F)cc2F)n1)[C@](O)(Cn1cnnn1)c1ccc(F)cc1F,"growth, broth microdilution",H99,"72 h, 30 °C, ≥50% inhibition",MIC,0.125 µg/mL
CN(Cc1cc(C2CC2)on1)C(=O)c1cccc(-c2ccc3c(c2)CCO3)c1,,H99,added: rapamycin,FIC index,0.5
CCCCCCCCCC1CC2CCCC3CC(CCCCCCCCC)NC(=N1)N23 (stereo not shown),fungal growth,ATCC 90113,,MFC,2.9 µM
CCn1ccc([C@H](C)[C@](O)(Cn2cnnn2)c2ccc(F)cc2F)n1,"growth, broth microdilution",H99,"72 h, 30 °C, ≥50% inhibition",MIC,4 µg/mL
CCCCCCCCCC1CC2CCC3CC(CCCCCCCCC)NC(=N1)N23 (stereo not shown),microbial growth,ATCC90113,,IC50,2110 nM
C/C=C/CNC(=N)NCCCCCCCCN1CCCCCCOc2ccccc2CNC(=N)NC1=O,"microbial growth, broth dilution",,24 h,MIC90,6.25 µg/mL
CC(C)S(=O)(=O)c1cccc(O)c(=O)c1O,"microbial growth, broth dilution",,13 h,MIC80,50 µM
C[C@@H](c1ccn(Cc2ccc(Cl)cc2Cl)n1)[C@](O)(Cn1cnnn1)c1ccc(F)cc1F,"growth, broth microdilution",H99,"72 h, 30 °C, ≥50% inhibition",MIC,< 0.008 µg/mL
Cc1ccc(S(=O)(=O)c2cccc(O)c(=O)c2O)cc1,"microbial growth, broth dilution",,13 h,MIC80,38 µM
CCCCCCCCCCCCCCCCC1CC(=O)NCCCN(C)CCCCN(C)CCCN1C (stereo not shown),microbial growth,ATCC90113,,IC50,1 µg/mL
C/C=C/CNC(=N)NCCCCCCCCN1CCCc2ccc(F)cc2COc2ccccc2CNC(=N)NC1=O,"microbial growth, broth dilution",,24 h,MIC90,3.12 µg/mL
C[C@@H](c1ccn(Cc2ccc(I)cc2)n1)[C@](O)(Cn1cnnn1)c1ccc(F)cc1F,"growth, broth microdilution",H99,"72 h, 30 °C, ≥50% inhibition",MIC,< 0.008 µg/mL
O=c1c(O)cccc(S(=O)(=O)c2cccc3ccccc23)c1O,"microbial growth, broth dilution",,13 h,MIC80,38 µM
CCCCCC1CC2CCCC3CC(C)N=C(N1)N32 (stereo not shown),microbial growth,ATCC90113,,IC50,2120 nM
CCCCCCS(=O)(=O)c1cccc(O)c(=O)c1O,"microbial growth, broth dilution",,13 h,MIC80,14 µM
C[C@@H](c1ccn(Cc2ccc(F)c(Cl)c2)n1)[C@](O)(Cn1cnnn1)c1ccc(F)cc1F,"growth, broth microdilution",H99,"72 h, 30 °C, ≥50% inhibition",MIC,< 0.008 µg/mL
CCCCCCSc1cccc(O)c(=O)c1O,"microbial growth, broth dilution",,13 h,MIC80,1.7 µM
CCCn1ccc([C@H](C)[C@](O)(Cn2cnnn2)c2ccc(F)cc2F)n1,"growth, broth microdilution",H99,"72 h, 30 °C, ≥50% inhibition",MIC,2 µg/mL

# Repeated from above:
Structure (SMILES),test,test system,setting,endpoint,result
CCCCCCS(=O)(=O)c1cccc(O)c(=O)c1O,"microbial growth, broth dilution",,13 h,MIC80,14 µM
